# Measured values pooled from the literature.
# A part holds a random share of what one study measured.
# Chain of UniProt Q9Y243 (whole entry, looked up): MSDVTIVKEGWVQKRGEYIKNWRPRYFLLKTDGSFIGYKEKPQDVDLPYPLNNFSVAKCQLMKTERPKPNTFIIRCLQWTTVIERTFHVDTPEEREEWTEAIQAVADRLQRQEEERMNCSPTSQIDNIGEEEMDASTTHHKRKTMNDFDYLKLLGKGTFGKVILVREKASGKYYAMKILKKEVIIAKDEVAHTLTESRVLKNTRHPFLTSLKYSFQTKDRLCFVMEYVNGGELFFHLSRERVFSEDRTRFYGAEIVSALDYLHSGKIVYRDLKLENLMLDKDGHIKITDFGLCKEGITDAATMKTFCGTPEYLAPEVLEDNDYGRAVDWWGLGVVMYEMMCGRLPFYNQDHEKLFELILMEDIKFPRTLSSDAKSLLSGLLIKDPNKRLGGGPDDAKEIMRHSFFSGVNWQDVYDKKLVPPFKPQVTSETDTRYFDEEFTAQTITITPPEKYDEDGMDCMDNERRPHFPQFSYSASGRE
# Chain of UniProt O15197 (whole entry, looked up): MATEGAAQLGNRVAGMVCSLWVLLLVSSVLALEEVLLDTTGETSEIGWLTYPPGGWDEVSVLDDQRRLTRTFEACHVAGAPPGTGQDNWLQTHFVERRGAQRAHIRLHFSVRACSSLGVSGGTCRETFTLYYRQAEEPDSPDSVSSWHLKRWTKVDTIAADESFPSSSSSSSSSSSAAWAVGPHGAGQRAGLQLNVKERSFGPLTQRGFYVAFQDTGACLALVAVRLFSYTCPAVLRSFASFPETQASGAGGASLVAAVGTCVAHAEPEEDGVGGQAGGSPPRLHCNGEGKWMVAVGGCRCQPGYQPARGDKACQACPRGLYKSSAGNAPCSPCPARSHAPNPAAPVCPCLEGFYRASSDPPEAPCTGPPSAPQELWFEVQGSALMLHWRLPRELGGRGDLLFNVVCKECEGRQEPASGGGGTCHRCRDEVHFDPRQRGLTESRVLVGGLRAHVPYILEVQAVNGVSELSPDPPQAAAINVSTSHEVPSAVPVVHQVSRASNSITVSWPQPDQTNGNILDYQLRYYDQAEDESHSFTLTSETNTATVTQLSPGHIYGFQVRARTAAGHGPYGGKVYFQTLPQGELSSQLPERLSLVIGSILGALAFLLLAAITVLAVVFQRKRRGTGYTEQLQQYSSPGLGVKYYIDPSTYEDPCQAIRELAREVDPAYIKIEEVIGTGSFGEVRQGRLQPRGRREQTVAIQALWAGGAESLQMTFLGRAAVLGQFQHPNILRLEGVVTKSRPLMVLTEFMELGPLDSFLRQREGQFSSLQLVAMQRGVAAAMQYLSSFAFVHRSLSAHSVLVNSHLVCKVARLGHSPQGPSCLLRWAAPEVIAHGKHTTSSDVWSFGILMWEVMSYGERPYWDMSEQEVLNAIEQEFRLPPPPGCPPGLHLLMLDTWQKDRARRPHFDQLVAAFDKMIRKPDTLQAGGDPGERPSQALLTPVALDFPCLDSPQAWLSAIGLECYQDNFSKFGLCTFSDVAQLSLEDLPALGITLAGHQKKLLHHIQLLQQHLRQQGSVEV
# Chain of UniProt O14733 (whole entry, looked up): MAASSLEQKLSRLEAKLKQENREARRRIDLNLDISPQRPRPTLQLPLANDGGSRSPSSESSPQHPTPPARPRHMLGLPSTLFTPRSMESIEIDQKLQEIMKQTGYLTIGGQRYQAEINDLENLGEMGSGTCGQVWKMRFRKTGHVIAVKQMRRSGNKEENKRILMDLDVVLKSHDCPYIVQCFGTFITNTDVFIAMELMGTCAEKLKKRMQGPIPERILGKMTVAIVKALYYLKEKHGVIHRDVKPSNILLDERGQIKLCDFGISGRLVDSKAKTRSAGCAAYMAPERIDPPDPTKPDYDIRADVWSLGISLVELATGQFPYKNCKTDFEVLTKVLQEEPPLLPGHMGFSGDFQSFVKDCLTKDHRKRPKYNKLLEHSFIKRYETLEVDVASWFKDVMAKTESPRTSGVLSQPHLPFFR
# Chain of UniProt Q9UK32 (whole entry, looked up): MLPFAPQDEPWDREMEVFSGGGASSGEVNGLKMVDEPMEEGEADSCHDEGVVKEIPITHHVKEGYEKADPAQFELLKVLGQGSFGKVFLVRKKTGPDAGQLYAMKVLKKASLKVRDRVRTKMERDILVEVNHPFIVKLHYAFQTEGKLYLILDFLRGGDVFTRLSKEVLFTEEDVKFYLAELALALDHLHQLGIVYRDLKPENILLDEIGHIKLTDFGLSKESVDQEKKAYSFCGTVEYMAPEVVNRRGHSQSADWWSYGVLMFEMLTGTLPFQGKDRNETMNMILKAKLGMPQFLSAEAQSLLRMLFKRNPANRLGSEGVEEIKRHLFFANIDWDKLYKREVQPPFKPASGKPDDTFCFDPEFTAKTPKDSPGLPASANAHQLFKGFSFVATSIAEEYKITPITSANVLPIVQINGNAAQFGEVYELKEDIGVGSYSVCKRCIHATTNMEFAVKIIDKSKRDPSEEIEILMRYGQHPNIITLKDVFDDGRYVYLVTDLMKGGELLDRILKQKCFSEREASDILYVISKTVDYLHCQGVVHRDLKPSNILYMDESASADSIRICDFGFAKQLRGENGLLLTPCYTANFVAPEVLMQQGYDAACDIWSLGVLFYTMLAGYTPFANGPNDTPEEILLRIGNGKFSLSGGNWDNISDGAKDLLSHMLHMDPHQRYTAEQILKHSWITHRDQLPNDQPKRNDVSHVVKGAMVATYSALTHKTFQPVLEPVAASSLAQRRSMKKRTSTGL
# Chain of UniProt P78356 (whole entry, looked up): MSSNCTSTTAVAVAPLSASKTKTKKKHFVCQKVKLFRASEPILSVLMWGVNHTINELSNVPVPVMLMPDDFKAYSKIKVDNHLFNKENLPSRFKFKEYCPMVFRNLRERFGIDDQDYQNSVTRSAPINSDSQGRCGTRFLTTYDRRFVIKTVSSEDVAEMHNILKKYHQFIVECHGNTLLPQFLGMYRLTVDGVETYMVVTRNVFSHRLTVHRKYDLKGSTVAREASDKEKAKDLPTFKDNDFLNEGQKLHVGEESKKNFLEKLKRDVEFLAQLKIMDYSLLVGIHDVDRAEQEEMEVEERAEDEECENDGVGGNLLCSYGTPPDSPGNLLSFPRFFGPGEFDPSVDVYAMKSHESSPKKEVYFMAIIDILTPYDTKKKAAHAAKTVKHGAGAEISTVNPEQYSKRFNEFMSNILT

# Set 1
# SMILES: CS(=O)(=O)c1cc(C2(NC(=O)c3cncc4c3cnn4-c3ccc(F)cc3)CC2)ccn1
# Tested at: 1 µM
target,assay,remaining binding [%]
"eIF-2-alpha kinase GCN2, C-terminal kinase domain (EIF2AK4, Homo sapiens, UniProt Q9P2K8, S808G)","cell-free assay, competition with immobilised ligand",91
"EPHB6 (Homo sapiens, UniProt O15197)","cell-free assay, competition with immobilised ligand",100
"PRKCH (Homo sapiens, UniProt P24723)","cell-free assay, competition with immobilised ligand",100
"EPHB4 (Homo sapiens, UniProt P54760)","cell-free assay, competition with immobilised ligand",100
"PIP4K2B (Homo sapiens, UniProt P78356)","cell-free assay, competition with immobilised ligand",100
"SRPK2 (Homo sapiens, UniProt P78362)","cell-free assay, competition with immobilised ligand",100
"FLT3 (Homo sapiens, UniProt P36888, F691L/ITD)","cell-free assay, competition with immobilised ligand",58
"SIK1 (Homo sapiens, UniProt P57059)",competition binding,100
"Ribosomal protein S6 kinase alpha-6, N-terminal kinase domain (RPS6KA6, Homo sapiens, UniProt Q9UK32)","cell-free assay, competition with immobilised ligand",97
"AKT3 (Homo sapiens, UniProt Q9Y243)","cell-free assay, competition with immobilised ligand",96
"AAK1 (Homo sapiens, UniProt Q2M2I8)",binding,94
"MAP2K7 (Homo sapiens, UniProt O14733)","cell-free assay, competition with immobilised ligand",91

# Set 2
# Target: Serine/threonine-protein kinase N1 (PKN1, Homo sapiens, UniProt Q16512)
# Chain of UniProt Q16512 (whole entry, looked up): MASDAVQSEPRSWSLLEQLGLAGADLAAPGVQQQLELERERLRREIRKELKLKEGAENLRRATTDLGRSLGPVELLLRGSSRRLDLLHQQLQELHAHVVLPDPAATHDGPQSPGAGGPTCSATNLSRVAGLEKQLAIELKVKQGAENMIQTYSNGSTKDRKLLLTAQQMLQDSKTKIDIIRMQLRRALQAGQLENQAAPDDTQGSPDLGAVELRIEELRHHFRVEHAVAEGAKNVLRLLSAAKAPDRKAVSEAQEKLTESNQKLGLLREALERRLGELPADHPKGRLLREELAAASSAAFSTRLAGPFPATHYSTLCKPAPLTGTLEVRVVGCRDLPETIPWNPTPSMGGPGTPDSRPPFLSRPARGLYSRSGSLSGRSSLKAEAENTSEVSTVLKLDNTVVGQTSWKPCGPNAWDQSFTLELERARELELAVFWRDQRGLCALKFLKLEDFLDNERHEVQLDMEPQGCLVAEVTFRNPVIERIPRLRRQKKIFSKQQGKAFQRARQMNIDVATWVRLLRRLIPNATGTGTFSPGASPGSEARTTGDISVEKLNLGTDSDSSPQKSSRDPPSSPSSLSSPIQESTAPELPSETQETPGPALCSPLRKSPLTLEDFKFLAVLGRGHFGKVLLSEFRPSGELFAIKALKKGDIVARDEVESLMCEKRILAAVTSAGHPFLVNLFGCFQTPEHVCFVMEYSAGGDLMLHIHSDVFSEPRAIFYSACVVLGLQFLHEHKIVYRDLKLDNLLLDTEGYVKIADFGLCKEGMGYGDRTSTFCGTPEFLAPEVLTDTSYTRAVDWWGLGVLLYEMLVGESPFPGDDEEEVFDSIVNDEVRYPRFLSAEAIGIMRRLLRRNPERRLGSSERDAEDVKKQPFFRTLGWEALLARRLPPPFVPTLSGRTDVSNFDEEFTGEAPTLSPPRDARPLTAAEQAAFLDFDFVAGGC
# Read-out: enzyme activity
# Action: inhibitor
# Tested at: 0.5 µM
# Baseline: control
Structure (SMILES),remaining activity
Cc1ccc(NC2=CC(=O)c3sc(C)nc3C2=O)cc1,98.9%
Nc1nccc(-c2c(-c3ccc(F)cc3)ncn2C2CCNCC2)n1,96.3%
CC(=O)c1ccc(N2CCOCC2)cc1O,108%
Fc1ccc(-c2nc3n(c2-c2ccncc2)CCS3)cc1,101%
CSc1nc(-c2ccnc(N[C@@H](C)c3ccccc3)c2)c(-c2ccc(F)cc2)[nH]1 (racemic),105%
Nc1ncnc2c1cnn2-c1ccccc1,98.6%
N#CC(=C(N)Sc1ccc(N)cc1)c1ccccc1C(F)(F)F,104%
NC(=O)c1ccc(N(C(N)=O)c2c(F)cccc2F)nc1-c1ccc(F)cc1F,101%
Cc1cncc2cccc(S(=O)(=O)N3CCCN(C(=O)CN)C[C@@H]3C)c12,25.3%
CCCC(=O)Oc1ccc2[nH]c(C(=O)c3cc4ccccc4[nH]3)cc2c1,94.6%
COc1ccc(S(=O)(=O)N(CCO)c2ccccc2CN(C)CC=Cc2ccc(Cl)cc2)cc1,110%
CC#CC(=O)Nc1cc2c(Nc3ccc(F)c(Cl)c3)ncnc2cn1,101%
O=C1Cc2c([nH]c3ccc([N+](=O)[O-])cc23)-c2ccccc2N1,88.2%
CC(C)(C)n1nc(Cc2cccc3ccccc23)c2c(N)ncnc21,99.6%

# Set 3
# Organism: Sarcocystis neurona
# Read-out: parasite growth
# Tested at: 10 µM
# Time: 96 h
# Setting: first screen
# Baseline: untreated
SMILES,log2 fold change
CC(c1cc2ccccc2s1)N(O)C(N)=O (stereo not drawn),0.46
C[C@H]1c2cccc(O)c2C(=O)C2=C(O)[C@]3(O)C(=O)C(C(N)=O)=C(O)[C@@H](N(C)C)[C@@H]3[C@@H](O)[C@@H]21,0.37
CC(C)c1nc(CN(C)C(=O)N[C@H](C(=O)N[C@@H](Cc2ccccc2)C[C@H](O)[C@H](Cc2ccccc2)NC(=O)OCc2cncs2)C(C)C)cs1,-0.95
COc1ccc(-c2oc3c(CC=C(C)C)c(O[C@@H]4O[C@H](CO)[C@@H](O)[C@H](O)[C@H]4O)cc(O)c3c(=O)c2O[C@@H]2O[C@@H](C)[C@H](O)[C@@H](O)[C@H]2O)cc1,0.00321
Cc1cnc(C(=O)NCCc2ccc(S(=O)(=O)NC(=O)NC3CCCCC3)cc2)cn1,0.31
C[C@@H](c1ncncc1F)[C@](O)(Cn1cncn1)c1ccc(F)cc1F,0.26

# Other studies, line by line
SMILES,target,assay,setting,how to read,quantity,result
CC(C)C[C@@H](C=O)NC(=O)[C@H](CC(C)C)NC(=O)[C@H](CC(C)C)NC(=O)OCc1ccccc1,"Membrane-associated tyrosine- and threonine-specific cdc2-inhibitory kinase (PKMYT1, Homo sapiens, UniProt Q99640)",immunoblotting,"1 µM, unit not given",baseline: untreated,protein level,1.32

# Excerpt of the above (set 2):
Structure (SMILES),remaining activity
CC(=O)c1ccc(N2CCOCC2)cc1O,108%
Fc1ccc(-c2nc3n(c2-c2ccncc2)CCS3)cc1,101%
